{"data": "Published values pooled from the literature", "Uncharacterized protein": "Uncharacterized protein (Equus caballus, UniProt Q38RB9)", "gag-pol reverse transcriptase": "Gag-Pol polyprotein, reverse transcriptase (gag-pol, Human immunodeficiency virus 1, UniProt P03366)", "Cytochrome P450 2A13": "Cytochrome P450 2A13 (Homo sapiens, UniProt Q16696)", "note": "Each line is one published result; not all experiments were run side by side. Values joined by “and” are separate records of one study, mostly repeats; a detail may differ. ± marks the error that the study gave.", "UniProt Q16696, sequence (whole entry, looked up)": "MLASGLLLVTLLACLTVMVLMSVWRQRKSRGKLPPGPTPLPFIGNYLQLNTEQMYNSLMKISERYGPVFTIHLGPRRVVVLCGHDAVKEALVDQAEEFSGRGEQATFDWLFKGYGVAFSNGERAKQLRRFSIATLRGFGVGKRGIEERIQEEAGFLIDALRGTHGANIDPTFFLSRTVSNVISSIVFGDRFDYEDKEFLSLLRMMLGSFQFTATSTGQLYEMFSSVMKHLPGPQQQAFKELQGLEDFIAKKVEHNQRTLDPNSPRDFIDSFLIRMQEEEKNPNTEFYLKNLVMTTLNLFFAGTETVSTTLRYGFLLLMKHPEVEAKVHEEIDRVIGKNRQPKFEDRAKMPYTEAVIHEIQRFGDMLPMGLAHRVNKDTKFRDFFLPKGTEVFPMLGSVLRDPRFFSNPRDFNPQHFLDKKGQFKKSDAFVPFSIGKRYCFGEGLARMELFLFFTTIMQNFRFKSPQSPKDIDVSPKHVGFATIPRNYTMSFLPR", "UniProt Q15391, sequence (whole entry, looked up)": "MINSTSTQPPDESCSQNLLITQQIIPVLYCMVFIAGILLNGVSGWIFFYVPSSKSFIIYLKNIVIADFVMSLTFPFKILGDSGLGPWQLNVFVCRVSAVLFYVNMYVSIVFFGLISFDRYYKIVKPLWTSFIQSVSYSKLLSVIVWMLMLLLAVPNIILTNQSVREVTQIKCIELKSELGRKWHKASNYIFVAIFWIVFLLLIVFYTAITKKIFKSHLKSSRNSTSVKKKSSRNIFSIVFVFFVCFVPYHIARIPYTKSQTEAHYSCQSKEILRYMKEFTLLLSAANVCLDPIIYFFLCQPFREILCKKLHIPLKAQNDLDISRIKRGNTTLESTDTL", "UniProt P03303, sequence (whole entry, looked up)": "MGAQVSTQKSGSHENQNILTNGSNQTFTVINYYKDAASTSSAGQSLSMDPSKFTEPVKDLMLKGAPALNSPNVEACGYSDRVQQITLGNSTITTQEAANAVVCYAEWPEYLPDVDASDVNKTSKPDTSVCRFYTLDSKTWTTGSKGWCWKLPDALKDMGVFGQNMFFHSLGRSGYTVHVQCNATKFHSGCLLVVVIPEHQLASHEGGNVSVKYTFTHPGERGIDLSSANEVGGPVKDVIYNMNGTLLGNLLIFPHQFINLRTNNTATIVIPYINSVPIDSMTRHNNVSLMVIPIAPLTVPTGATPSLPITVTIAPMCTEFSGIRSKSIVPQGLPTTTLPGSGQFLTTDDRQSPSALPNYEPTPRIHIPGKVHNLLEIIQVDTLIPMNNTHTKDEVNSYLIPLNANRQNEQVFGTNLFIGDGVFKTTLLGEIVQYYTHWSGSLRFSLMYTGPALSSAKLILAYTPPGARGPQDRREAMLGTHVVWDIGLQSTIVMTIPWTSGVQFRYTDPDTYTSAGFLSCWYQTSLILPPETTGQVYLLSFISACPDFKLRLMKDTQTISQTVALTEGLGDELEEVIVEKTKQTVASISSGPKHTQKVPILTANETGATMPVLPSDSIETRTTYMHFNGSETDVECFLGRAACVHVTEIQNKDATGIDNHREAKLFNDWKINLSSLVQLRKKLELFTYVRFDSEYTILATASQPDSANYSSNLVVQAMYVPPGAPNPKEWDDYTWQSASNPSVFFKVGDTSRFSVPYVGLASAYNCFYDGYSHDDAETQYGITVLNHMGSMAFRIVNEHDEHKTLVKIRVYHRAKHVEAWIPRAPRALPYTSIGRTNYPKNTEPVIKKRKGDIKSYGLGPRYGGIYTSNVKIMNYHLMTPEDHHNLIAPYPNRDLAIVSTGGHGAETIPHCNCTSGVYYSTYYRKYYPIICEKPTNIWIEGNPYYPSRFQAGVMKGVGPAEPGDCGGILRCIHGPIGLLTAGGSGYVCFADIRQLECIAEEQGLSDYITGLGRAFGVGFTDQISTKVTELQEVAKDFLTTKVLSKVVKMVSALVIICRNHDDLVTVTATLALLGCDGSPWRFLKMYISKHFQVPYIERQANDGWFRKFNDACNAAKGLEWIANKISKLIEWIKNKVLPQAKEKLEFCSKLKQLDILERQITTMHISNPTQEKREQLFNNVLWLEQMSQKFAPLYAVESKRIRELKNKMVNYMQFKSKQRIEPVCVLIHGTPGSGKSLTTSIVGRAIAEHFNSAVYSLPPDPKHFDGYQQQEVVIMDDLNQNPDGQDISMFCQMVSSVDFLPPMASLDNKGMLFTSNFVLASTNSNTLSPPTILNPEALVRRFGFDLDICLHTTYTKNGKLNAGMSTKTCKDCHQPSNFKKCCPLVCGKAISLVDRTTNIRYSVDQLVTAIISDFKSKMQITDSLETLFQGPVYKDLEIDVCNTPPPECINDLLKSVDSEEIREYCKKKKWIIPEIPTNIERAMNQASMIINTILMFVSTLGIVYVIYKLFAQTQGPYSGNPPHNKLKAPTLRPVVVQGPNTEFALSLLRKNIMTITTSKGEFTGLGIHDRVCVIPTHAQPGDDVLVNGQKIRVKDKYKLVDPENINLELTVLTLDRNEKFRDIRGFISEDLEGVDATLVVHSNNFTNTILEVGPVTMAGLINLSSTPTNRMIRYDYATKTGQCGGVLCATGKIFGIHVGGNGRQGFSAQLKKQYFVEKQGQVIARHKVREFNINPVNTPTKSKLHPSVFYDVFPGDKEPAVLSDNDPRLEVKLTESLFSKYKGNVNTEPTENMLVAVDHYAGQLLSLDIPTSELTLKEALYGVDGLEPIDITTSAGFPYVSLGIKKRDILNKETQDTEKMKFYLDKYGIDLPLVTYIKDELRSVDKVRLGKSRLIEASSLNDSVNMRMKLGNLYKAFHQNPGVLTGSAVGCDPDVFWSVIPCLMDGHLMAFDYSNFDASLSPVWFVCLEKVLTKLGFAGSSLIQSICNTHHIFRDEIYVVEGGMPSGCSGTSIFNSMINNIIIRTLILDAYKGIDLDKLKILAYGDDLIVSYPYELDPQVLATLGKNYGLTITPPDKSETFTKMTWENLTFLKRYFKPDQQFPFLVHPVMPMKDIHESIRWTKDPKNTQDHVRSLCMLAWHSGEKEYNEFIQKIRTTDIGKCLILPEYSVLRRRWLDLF", "UniProt Q05940, sequence (whole entry, looked up)": "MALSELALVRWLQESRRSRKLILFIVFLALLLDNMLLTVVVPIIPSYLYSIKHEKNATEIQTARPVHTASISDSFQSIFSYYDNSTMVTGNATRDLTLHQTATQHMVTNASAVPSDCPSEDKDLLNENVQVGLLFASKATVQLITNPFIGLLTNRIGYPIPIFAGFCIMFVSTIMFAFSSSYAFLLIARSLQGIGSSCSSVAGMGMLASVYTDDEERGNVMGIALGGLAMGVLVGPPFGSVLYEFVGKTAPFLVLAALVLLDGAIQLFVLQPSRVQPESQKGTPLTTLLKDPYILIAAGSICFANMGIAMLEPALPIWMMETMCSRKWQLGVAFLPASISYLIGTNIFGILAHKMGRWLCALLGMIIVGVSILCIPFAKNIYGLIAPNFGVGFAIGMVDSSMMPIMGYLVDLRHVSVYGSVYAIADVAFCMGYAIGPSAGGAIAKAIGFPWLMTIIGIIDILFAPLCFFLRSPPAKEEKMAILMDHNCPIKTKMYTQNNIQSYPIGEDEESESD", "UniProt Q8BHN3, sequence (whole entry, looked up)": "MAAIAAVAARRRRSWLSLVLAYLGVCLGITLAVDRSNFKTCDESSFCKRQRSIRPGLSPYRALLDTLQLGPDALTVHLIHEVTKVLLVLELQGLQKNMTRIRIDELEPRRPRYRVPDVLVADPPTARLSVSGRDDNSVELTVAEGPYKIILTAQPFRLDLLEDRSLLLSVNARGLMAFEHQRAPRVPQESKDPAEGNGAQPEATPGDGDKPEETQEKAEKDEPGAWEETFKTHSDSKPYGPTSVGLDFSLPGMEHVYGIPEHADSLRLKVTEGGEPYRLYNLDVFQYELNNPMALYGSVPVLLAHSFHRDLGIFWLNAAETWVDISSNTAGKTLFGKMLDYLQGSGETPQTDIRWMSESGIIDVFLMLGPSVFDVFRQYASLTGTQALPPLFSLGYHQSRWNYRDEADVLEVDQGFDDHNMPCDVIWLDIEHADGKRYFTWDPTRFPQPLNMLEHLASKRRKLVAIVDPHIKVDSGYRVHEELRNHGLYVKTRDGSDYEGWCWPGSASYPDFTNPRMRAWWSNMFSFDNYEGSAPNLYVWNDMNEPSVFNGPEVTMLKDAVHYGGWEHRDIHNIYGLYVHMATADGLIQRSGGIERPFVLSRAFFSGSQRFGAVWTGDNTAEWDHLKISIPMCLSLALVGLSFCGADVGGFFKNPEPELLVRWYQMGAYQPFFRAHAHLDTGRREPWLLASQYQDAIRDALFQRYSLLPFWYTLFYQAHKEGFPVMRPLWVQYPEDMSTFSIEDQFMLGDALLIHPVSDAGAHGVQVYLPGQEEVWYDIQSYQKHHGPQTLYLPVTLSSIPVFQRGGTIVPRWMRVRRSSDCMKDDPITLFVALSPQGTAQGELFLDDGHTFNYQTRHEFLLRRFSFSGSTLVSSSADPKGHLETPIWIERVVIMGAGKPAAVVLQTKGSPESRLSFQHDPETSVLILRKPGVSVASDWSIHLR", "UniProt P30559, sequence (whole entry, looked up)": "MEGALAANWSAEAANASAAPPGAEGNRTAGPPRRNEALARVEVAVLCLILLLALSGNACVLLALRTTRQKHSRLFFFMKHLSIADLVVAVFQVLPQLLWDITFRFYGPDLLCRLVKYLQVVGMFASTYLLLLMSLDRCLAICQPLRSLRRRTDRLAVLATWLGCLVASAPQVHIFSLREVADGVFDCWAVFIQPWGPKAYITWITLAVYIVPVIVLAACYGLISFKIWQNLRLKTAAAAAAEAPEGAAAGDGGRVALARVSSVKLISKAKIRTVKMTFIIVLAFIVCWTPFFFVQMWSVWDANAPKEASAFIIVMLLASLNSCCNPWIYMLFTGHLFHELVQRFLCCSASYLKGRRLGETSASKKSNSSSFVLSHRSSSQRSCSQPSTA", "UniProt O95147, sequence (whole entry, looked up)": "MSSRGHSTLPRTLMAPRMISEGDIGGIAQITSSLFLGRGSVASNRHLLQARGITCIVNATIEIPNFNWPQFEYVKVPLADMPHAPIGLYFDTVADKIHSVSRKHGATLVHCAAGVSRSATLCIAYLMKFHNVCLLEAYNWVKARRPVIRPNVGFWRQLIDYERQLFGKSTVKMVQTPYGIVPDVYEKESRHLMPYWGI"}
{"Structure (SMILES)": "CC[C@H](C)[C@H](NC(=O)[C@H](CCC(=O)O)NC(=O)[C@H](CCC(N)=O)NC(=O)[C@H](C)NC(=O)[C@H](CCCCN)NC(=O)[C@H](CCCCN)NC(=O)[C@H](CC(C)C)NC(=O)[C@H](CC(=O)O)NC(=O)[C@H](C)N)C(=O)O", "target": "Uncharacterized protein", "assay": "peptide binding, competitor, competitive radioligand binding", "system": "purified horse MHC class I", "setting": "pH 7", "IC50": "7.7 nM"}
{"Structure (SMILES)": "N#Cc1ccc(Nc2ncc(Cc3c(F)cc(-c4ccc(O)cc4)cc3F)o2)cc1", "target": "gag-pol reverse transcriptase", "assay": "enzyme activity, inhibitor", "system": "HIV-1", "IC50": "> 1000 nM"}
{"Structure (SMILES)": "CC(C)C[C@@H](CNC(=O)N1CCC[C@H]1C(N)=O)NC(=O)NC[C@H](CC(C)C)NC(=O)[C@H](C)NC(=O)[C@H](Cc1c[nH]c2ccccc12)NC(=O)[C@H](Cc1ccc(O)cc1)NC(=O)[C@H](CCC(=O)O)NC(=O)[C@H](C)NC(=O)[C@H](Cc1ccccc1)NC(=O)[C@H](CO)NC(=O)[C@@H](N)[C@@H](C)O", "target": "Protein Mdm4, with p53 (MDM4, Homo sapiens, UniProt O15151)", "assay": "p53 binding, TR-FRET", "IC50": "116 nM"}
{"Structure (SMILES)": "O=C(O)CC(F)(F)C(=O)N1N=C(c2c(-c3ccc(Cl)cc3)c3ccccc3[nH]c2=O)C[C@H]1c1ccc(Cl)cc1", "target": "Ionotropic glutamate receptor NMDA 1/2D (Rattus norvegicus, UniProt P35439+Q62645)", "assay": "ion current, inhibitor, two-electrode voltage clamp", "system": "Xenopus oocytes", "setting": "with: glycine and aspartate", "IC50": "17 nM"}
{"Structure (SMILES)": "O=C1c2ccccc2C(=O)c2oc(-c3cccnc3)nc21", "target": "USP2 (Homo sapiens, UniProt O75604)", "assay": "enzyme activity, MALDI-TOF", "setting": "35 min preincubation, 30 °C", "IC50": "210 nM"}
{"Structure (SMILES)": "c1ccc(-c2ccccc2)cc1", "target": "Cytochrome P450 2A13", "setting": "20 min, pH 7.4", "IC50": "15000 to 80000 nM"}
{"Structure (SMILES)": "O=C(Cn1nnc2ccccc21)Nc1ccccc1N1CCc2sccc2C1", "target": "Genome polyprotein, 3C protease (rhinovirus B14, UniProt P03303)", "assay": "protease activity, inhibitor, SAMDI-MS", "IC50": "> 100000 nM"}
{"Structure (SMILES)": "C#Cc1ccc2c(ccc3ccccc32)c1", "target": "Cytochrome P450 2A13", "assay": "enzyme activity, inhibitor", "setting": "20 min, pH 7.4", "IC50": "> 100000 nM"}
{"Structure (SMILES)": "O=C1CSC(c2cccc(F)c2)N1c1nc(-c2ccc(S(=O)(=O)N3CCCC3)cc2)cs1 (centres unmarked)", "target": "gag-pol reverse transcriptase", "IC50": "3860 nM"}
{"Structure (SMILES)": "NCCc1c[nH]c2ccc(O)cc12", "target": "SLC18A2 (Homo sapiens, UniProt Q05940)", "setting": "cell-based", "IC50": "500 nM"}
{"Structure (SMILES)": "COC(C(=O)N1C(=O)SCC1C1(OC)CC2CC(CCC(C)C=CC=CCCC(C)=CC(=O)O2)O1)c1ccccc1 (centres unmarked)", "target": "Actin, alpha skeletal muscle, pyrene-labeled (ACTA1, Oryctolagus cuniculus, UniProt P68135)", "assay": "actin polymerization, pyrene actin", "IC50": "> 10000 nM"}
{"Structure (SMILES)": "CN1Cc2cc(Cl)ccc2-n2c(nnc2C2CCN(c3ccccn3)CC2)C1", "target": "Oxytocin receptor (OXTR, Homo sapiens, UniProt P30559)", "assay": "binding", "IC50": "> 10000 nM"}
{"Structure (SMILES)": "COc1cc(C(=O)N2CC[C@@H](O)[C@@H](N)C2)cc2nc(-c3cc4ccccc4n3CC3CC3)n(C)c12", "target": "DRD1 (Homo sapiens, UniProt P21728)", "assay": "antagonist, TR-FRET", "IC50": "> 31600 nM"}
{"Structure (SMILES)": "COc1ncccc1-c1cnn2ccc(N3CCN(C(=O)OC(C)C)CC3)nc12", "target": "HTR4 (Homo sapiens, UniProt Q13639)", "assay": "liability screen", "IC50": "> 30000 nM"}
{"Structure (SMILES)": "OC[C@@H]1[C@@H](O)[C@H](O)[C@@H](O)CN1CCc1ccc(CCNc2cc(O)cc(-c3cccnn3)c2)cc1", "target": "Ganab (Mus musculus, UniProt Q8BHN3)", "assay": "enzyme activity, inhibitor", "setting": "with: 4-methylumbelliferyl substrate", "IC50": "< 1 nM"}
{"Structure (SMILES)": "CC#Cc1cc2ccccc2c2ccccc12", "target": "Cytochrome P450 2A13", "assay": "enzyme activity, inhibitor", "setting": "20 min, pH 7.4", "IC50": "> 180000 nM"}
{"Structure (SMILES)": "O=C1CSC(c2ccc(Cl)cc2)N1c1cccc(S(=O)(=O)Nc2nccs2)c1 (centres unmarked)", "target": "gag-pol reverse transcriptase", "IC50": "> 4000 nM"}
{"Structure (SMILES)": "C[C@H]1CN(c2n[nH]c3nc(N[C@H]4CC[C@H](NS(=O)(=O)CCC(F)(F)F)CC4)ncc23)CCO1", "target": "Stalled ribosome sensor GCN1 (Homo sapiens, UniProt Q92616)", "assay": "biochemical", "IC50": "≥ 20000 nM"}
{"Structure (SMILES)": "CCOC(=O)[C@H]1Cc2c(cc([N+](=O)[O-])cc2[N+](=O)[O-])[C@@H](O)[C@@]12C(=O)Nc1c(F)cccc12", "target": "MDM2 (Homo sapiens, UniProt Q00987)", "IC50": "770 ± 90 nM"}
{"Structure (SMILES)": "CC[C@H](C)[C@H](NC(=O)[C@H](CCC(=O)O)NC(=O)[C@H](CCCNC(=N)N)NC(=O)[C@@H](NC(=O)[C@H](CCCCN)NC(=O)[C@H](Cc1ccc(O)cc1)NC(=O)[C@@H](NC(=O)[C@H](CC(=O)O)NC(=O)[C@@H](N)CO)[C@@H](C)CC)[C@@H](C)CC)C(=O)O", "target": "Uncharacterized protein", "assay": "peptide binding, competitor, competitive radioligand binding", "system": "purified horse MHC class I", "setting": "pH 7", "IC50": "1.4 nM"}
{"Structure (SMILES)": "COc1cc(Nc2ncc(F)c(Nc3ccc4c(n3)NC(=O)C(C)(C)O4)n2)cc(OC)c1OC", "target": "DUSP14 (Homo sapiens, UniProt O95147)", "setting": "MKP-6", "IC50": "> 10000 nM"}
{"Structure (SMILES)": "CC#Cc1ccc2c(ccc3ccccc32)c1", "target": "Cytochrome P450 2A13", "assay": "enzyme activity, inhibitor", "setting": "20 min, pH 7.4", "IC50": "> 180000 nM"}
{"Structure (SMILES)": "CCCC[C@@H](NC(=O)[C@@H](N)Cc1ccc(O)cc1)C(=O)NCC(=O)N[C@@H](Cc1ccc(F)cc1)C(=O)N(C)CCC[C@@]1(c2ccc(F)cc2)OCc2cc(C#N)ccc21", "target": "Oprm1 (Rattus norvegicus, UniProt P33535)", "IC50": "34.7 nM"}
{"Structure (SMILES)": "CC[C@H](C)[C@H](NC(=O)[C@H](CCCNC(=N)N)NC(=O)[C@H](CC(C)C)NC(=O)[C@@H](NC(=O)[C@H](CCC(N)=O)NC(=O)[C@H](CCCCN)NC(=O)[C@@H](NC(=O)[C@H](CC(=O)O)NC(=O)[C@@H](N)CCCCN)[C@@H](C)O)[C@@H](C)CC)C(=O)O", "target": "Uncharacterized protein", "assay": "peptide binding, competitor, competitive radioligand binding", "system": "purified horse MHC class I", "setting": "pH 7", "IC50": "77 nM"}
{"Structure (SMILES)": "CC(=O)N1C[C@@H]2C[C@H]1C[C@H]2c1ccc(-c2cc(C(=O)O)cc3cc(-c4ccc(C(F)(F)F)cc4)ccc23)cc1 (racemic)", "target": "P2Y purinoceptor 14 (P2RY14, Homo sapiens, UniProt Q15391)", "assay": "antagonist, flow cytometry", "system": "CHO expressing target", "setting": "with: fluorescent antagonist 20 nM", "IC50": "29 nM and 29.4 nM"}
{"Structure (SMILES)": "O=C1CSC(c2ccc(F)cc2)N1c1nc(-c2ccc(S(=O)(=O)N3CCOCC3)cc2)cs1 (centres unmarked)", "target": "gag-pol reverse transcriptase", "IC50": "> 4000 nM"}
{"Structure (SMILES)": "CN1CCN(CCOc2c(Cl)cc(C(=O)N[C@@H](Cc3ccccc3)C(=O)O)c(O)c2Cl)CC1", "target": "CPSF3 (Homo sapiens, UniProt Q9UKF6)", "assay": "pre-mRNA cleavage, inhibitor", "system": "HeLa nuclear extract", "setting": "with: Chimera_3 substrate", "IC50": "39500 nM"}
{"Structure (SMILES)": "NC(=NCc1ccccc1)NC(=O)c1nc(Cl)c(N2CCCCCC2)nc1N", "target": "Genome polyprotein, 3D RNA polymerase (Coxsackievirus B3, UniProt P03313)", "assay": "RNA polymerase activity, inhibitor, single AMP incorporation", "setting": "no Mg2+ preincubation", "IC50": "22000 ± 4000 nM"}
{"Structure (SMILES)": "O=C1CSC(c2ccc(Br)cc2)N1c1cccc(S(=O)(=O)Nc2nccs2)c1 (centres unmarked)", "target": "gag-pol reverse transcriptase", "IC50": "> 4000 nM"}
{"note": "A few entries again:"}
{"Structure (SMILES)": "C[C@H]1CN(c2n[nH]c3nc(N[C@H]4CC[C@H](NS(=O)(=O)CCC(F)(F)F)CC4)ncc23)CCO1", "target": "Stalled ribosome sensor GCN1 (Homo sapiens, UniProt Q92616)", "assay": "biochemical", "IC50": "≥ 20000 nM"}
{"Structure (SMILES)": "CCOC(=O)[C@H]1Cc2c(cc([N+](=O)[O-])cc2[N+](=O)[O-])[C@@H](O)[C@@]12C(=O)Nc1c(F)cccc12", "target": "MDM2 (Homo sapiens, UniProt Q00987)", "IC50": "770 ± 90 nM"}
{"Structure (SMILES)": "CC[C@H](C)[C@H](NC(=O)[C@H](CCC(=O)O)NC(=O)[C@H](CCCNC(=N)N)NC(=O)[C@@H](NC(=O)[C@H](CCCCN)NC(=O)[C@H](Cc1ccc(O)cc1)NC(=O)[C@@H](NC(=O)[C@H](CC(=O)O)NC(=O)[C@@H](N)CO)[C@@H](C)CC)[C@@H](C)CC)C(=O)O", "target": "Uncharacterized protein", "assay": "peptide binding, competitor, competitive radioligand binding", "system": "purified horse MHC class I", "setting": "pH 7", "IC50": "1.4 nM"}
{"Structure (SMILES)": "COc1cc(Nc2ncc(F)c(Nc3ccc4c(n3)NC(=O)C(C)(C)O4)n2)cc(OC)c1OC", "target": "DUSP14 (Homo sapiens, UniProt O95147)", "setting": "MKP-6", "IC50": "> 10000 nM"}
